{"data": "Results of several laboratories", "note": "A part holds a random share of what one study measured."}
{"data": "Study 1", "target": "Ras GTPase-activating protein-binding protein 1, C-terminal RGG region (G3BP1, Homo sapiens, UniProt Q13283)", "method": "RNA Bind-n-Seq", "molecule type": "RNA", "medium": "in vitro", "tested at": "1 µM", "notes": "whole 134-nt RNA, ends assumed", "with": "150 mM KCl", "baseline": "input library", "reading": "higher = stronger binding", "constant ends, left off below": "GGGAGUUCUACAGUCCGACGAUC … UGGAAUUCUCGGGUGUCAAGG", "sequence of UniProt Q13283 (whole entry, looked up)": "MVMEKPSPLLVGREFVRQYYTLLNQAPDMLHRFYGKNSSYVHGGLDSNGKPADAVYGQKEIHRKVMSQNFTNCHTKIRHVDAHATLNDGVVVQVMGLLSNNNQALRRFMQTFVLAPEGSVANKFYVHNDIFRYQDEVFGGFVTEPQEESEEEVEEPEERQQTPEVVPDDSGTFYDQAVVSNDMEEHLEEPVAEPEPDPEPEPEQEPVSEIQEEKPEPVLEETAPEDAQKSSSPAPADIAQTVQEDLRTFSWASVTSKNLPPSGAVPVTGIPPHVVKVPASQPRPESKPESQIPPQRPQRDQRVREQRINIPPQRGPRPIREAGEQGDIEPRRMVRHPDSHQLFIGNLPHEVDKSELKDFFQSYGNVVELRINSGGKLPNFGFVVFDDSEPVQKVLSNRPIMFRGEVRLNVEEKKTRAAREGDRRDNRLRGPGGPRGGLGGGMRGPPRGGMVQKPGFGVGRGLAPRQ"}
{"Strand": "GUCCUGUGCUACACAUCGUAUGUACCGAAUCGGGGUGGGGUUUUUUUGGGGUUUGGGGAAAGUAUUAUGUUACGCCGUUCGGAUCUGCAC", "log2 enrichment": 1.08}
{"Strand": "GUCCUGUGCUACACAUCGUAUGUACCGAAUCGGGGUUUUUGGGGUUUUUGGGGAGGGGAAAGUAUUAUGUUACGCCGUUCGGAUCUGCAC", "log2 enrichment": 1.51}
{"Strand": "ACCAUGCAGGUGGGCAUCUUUGGGAAGUGGGGCAAGGGGGGGAUAGGUAGGGGGGUAACACUUUGGGAACAGGUGGUCCCAGGUCGUUUC", "log2 enrichment": 2.14}
{"Strand": "CUCAAGUCCUGUGCUACACAUCGUAUGUACCGAAUCGGAAAGGAGGAAAAAGGAAAGUAUUAUGUUACGCCGUUCGGAUCUGCACUUCCA", "log2 enrichment": -1.24}
{"Strand": "UGGGAGGUGGAUUUUGGUUAUUUUUUUAGCUCAUUUCCAGGGGUGGGAAUUUUUUUUUAAUAUGUGUCAUGAAUAAAGUUGUUUUUGAAA", "log2 enrichment": 3.26}
{"Strand": "UGGGAGGUGGAUUUUGUUUAUUUUUUUAGCUCAUUUCCAGGGGUGCGAAUUUUUUUUUAAUAUGUGUCAUGAAUAAAGUUGUUUUUGAAA", "log2 enrichment": 2.57}
{"Strand": "AAGUCCUGUGCUACACAUCGUAUGUACCGAAUCGGCCCCGGGGCCCCGGGCCCCGGAAAGUAUUAUGUUACGCCGUUCGGAUCUGCACUU", "log2 enrichment": -1.77}
{"Strand": "UCAAGUCCUGUGCUACACAUCGUAUGUACCGAAUCGGGGAGGGGAGGGGUGGGGAAAGUAUUAUGUUACGCCGUUCGGAUCUGCACUUCC", "log2 enrichment": 3.23}
{"Strand": "CAAGUCCUGUGCUACACAUCGUAUGUACCGAAUCGGAAAAAGGAGGAAAAAAAGGAAAGUAUUAUGUUACGCCGUUCGGAUCUGCACUUC", "log2 enrichment": -1.75}
{"Strand": "CCUCAAGUCCUGUGCUACACAUCGUAUGUACCGAAUCGGUUGGUUGGGUUGGAAAGUAUUAUGUUACGCCGUUCGGAUCUGCACUUCCAG", "log2 enrichment": -0.77}
{"Strand": "CCUCAAGUCCUGUGCUACACAUCGUAUGUACCGAAUCGGCGGGCGGGGCGGGGAAAGUAUUAUGUUACGCCGUUCGGAUCUGCACUUCCA", "log2 enrichment": -0.317}
{"Strand": "AGUCCUGUGCUACACAUCGUAUGUACCGAAUCGGAAAAAAAGGUUUUUGGAAAAAGGAAAGUAUUAUGUUACGCCGUUCGGAUCUGCACU", "log2 enrichment": -2.33}
{"Strand": "CCUCAAGUCCUGUGCUACACAUCGUAUGUACCGAAUCGGAAAAAGGAGGAGGAAAGUAUUAUGUUACGCCGUUCGGAUCUGCACUUCCAG", "log2 enrichment": -0.73}
{"Strand": "AAGUCCUGUGCUACACAUCGUAUGUACCGAAUCGGAAAAAGGAAAAAAAGGUUUGGAAAGUAUUAUGUUACGCCGUUCGGAUCUGCACUU", "log2 enrichment": -2.44}
{"data": "Study 2", "target": "Histone acetyltransferase KAT6A, winged helix 1, GST fusion (KAT6A, Homo sapiens, UniProt Q92794, residues 1-85)", "method": "protein binding microarray", "molecule type": "double-stranded DNA, one strand shown", "medium": "in vitro", "tested at": "not given", "notes": "8-mer, flanks averaged, mean of 2 arrays, mostly near background", "baseline": "not given", "reading": "higher = stronger binding", "Construct (chain)": "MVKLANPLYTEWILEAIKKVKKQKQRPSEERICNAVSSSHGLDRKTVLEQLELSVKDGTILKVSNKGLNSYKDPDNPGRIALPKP"}
{"Strand": "GCTATTGA", "E-score": -0.023}
{"Strand": "ACAGGCGG", "E-score": 0.174}
{"Strand": "GAAAGTGA", "E-score": -0.257}
{"Strand": "CCAATGAA", "E-score": -0.227}
{"Strand": "AGGGATTG", "E-score": -0.06}
{"Strand": "AGCGGAAC", "E-score": 0.31}
{"Strand": "CCCCCCCA", "E-score": -0.176}
{"Strand": "ACTCGGAC", "E-score": -0.00468}
{"Strand": "CAGAGGAG", "E-score": -0.236}
{"Strand": "AACACTCC", "E-score": -0.0191}
{"Strand": "AGAATGAA", "E-score": -0.0989}
{"Strand": "GAATCAAA", "E-score": -0.125}
{"Strand": "ACTAAAAT", "E-score": -0.151}
{"Strand": "CAGCGCCG", "E-score": 0.445}
{"Strand": "AACCGTCT", "E-score": 0.0084}
{"Strand": "AGGTAATA", "E-score": -0.00181}
{"Strand": "GACCGCTC", "E-score": 0.252}
{"Strand": "ACAGATGG", "E-score": -0.0002}
{"Strand": "ATTTCTGC", "E-score": 0.0318}
{"Strand": "TCTTCTAA", "E-score": -0.165}
{"Strand": "ACCGCAGC", "E-score": 0.175}
{"Strand": "CTCTCAAA", "E-score": -0.0792}
{"Strand": "TGTGTAAA", "E-score": -0.108}
{"Strand": "ACACGTCT", "E-score": -0.138}
{"Strand": "CGTTCGCA", "E-score": 0.155}
{"data": "Study 3", "target": "Interferon regulatory factor 5, full length, phosphomimetic (IRF5, Homo sapiens, UniProt Q13568-2, residues 1-514, K96S/S451D/S453D/S456D/S462D)", "method": "protein-binding microarray", "molecule type": "double-stranded DNA, one strand shown", "medium": "in vitro", "tested at": "250 nM", "notes": "60-bp whole probe", "with": "salmon DNA 0.4 mg/ml", "baseline": "random background probes", "reading": "higher = stronger binding", "constant ends, left off below": "GCCTAGCAC … GTCTTGATTCGCTTGACGCTGCTG"}
{"Strand": "TCATTTTCAATTTTTGCACTGTGCTAG", "log fluorescence": "2.38 z-score"}
{"Strand": "TTAGGTATCCTTTTCCGTTAGTGCTAG", "log fluorescence": "0.684 z-score"}
{"Strand": "TTAGGTATTGACACTGGGTTAGTGCTA", "log fluorescence": "-0.0263 z-score"}
{"Strand": "TTAGATTTCAGACTGGATAAGTGCTAG", "log fluorescence": "0.456 z-score"}
{"Strand": "GACGATATCGGGTATCGATACGTGCTA", "log fluorescence": "5.75 z-score"}
{"Strand": "GACGATTTCGGGTTTCAAGACGTGCTA", "log fluorescence": "3.79 z-score"}
{"Strand": "GACGGTTTCGACACTGGGGAAGTGCTA", "log fluorescence": "5.29 z-score"}
{"Strand": "CTTGGTAAATTTAGCCGACGGTGCTAG", "log fluorescence": "-0.351 z-score"}
{"Strand": "TTGGGACTGCTTATCCTTTAGTGCTAG", "log fluorescence": "-0.467 z-score"}
{"Strand": "GAACCTTCAGCTCTAGGTTCGTGCTAG", "log fluorescence": "0.0145 z-score"}
{"Strand": "TACGGACTGGGGTTTCGGGACGTGCTA", "log fluorescence": "1.11 z-score"}
{"Strand": "GATGATCTCAGTCTCGAGACGTGCTAG", "log fluorescence": "0.079 z-score"}
{"Strand": "TGAGGACTGGGACTGGGTTAGTGCTAG", "log fluorescence": "-0.685 z-score"}
{"Strand": "GACGGTTTCCTTTCCCTTACGTGCTAG", "log fluorescence": "1.85 z-score"}
{"Strand": "TCAGAGATTTTTCTCAAACTGTGCTAG", "log fluorescence": "0.168 z-score"}
{"Strand": "TTAGACTTCAGTTCCGATTAGTGCTAG", "log fluorescence": "1.13 z-score"}
{"Strand": "GACGAACTGGGGTATGGAGACGTGCTA", "log fluorescence": "-0.414 z-score"}
{"Strand": "TTAGGTATCCTTTTCTTTTAGTGCTAG", "log fluorescence": "0.883 z-score"}
{"Strand": "TTAGGTTTCCGTATCGGTTAGTGCTAG", "log fluorescence": "7.12 z-score"}
{"Strand": "CCAACTCGCCTTTTTTGTTGGTGCTAG", "log fluorescence": "0.0151 z-score"}
{"Strand": "TCAGATTTCAGTATCGATTAGTGCTAG", "log fluorescence": "8.35 z-score"}
{"Strand": "TTAGATATCTGGTTTCGATTAGTGCTA", "log fluorescence": "8.91 z-score"}
{"Strand": "TTACGTTTCGACACTGGGTTAGTGCTA", "log fluorescence": "6.24 z-score"}
{"Strand": "AGTCCTGTCCAAGATGAGGAGTGCTAG", "log fluorescence": "-0.345 z-score"}
{"Strand": "CACGGTATCCTTATCCTGACGTGCTAG", "log fluorescence": "-0.0438 z-score"}
{"data": "Study 4", "target": "RING finger protein unkempt homolog, zinc fingers 1-6, SBP tag (UNK, Homo sapiens, UniProt Q9C0B0, residues 30-357)", "method": "RNA Bind-n-Seq", "molecule type": "RNA", "medium": "in vitro", "tested at": "100 nM", "notes": "RNA with constant flanks, vertebrate orthologous sites, ends assumed", "baseline": "input RNA pool", "reading": "higher = stronger binding", "constant ends, left off below": "GGGAGUUCUACAGUCCGACGAUC … CAACAGAGGAUUGAGCAUCA", "sequence of UniProt Q9C0B0 (30-357, looked up)": "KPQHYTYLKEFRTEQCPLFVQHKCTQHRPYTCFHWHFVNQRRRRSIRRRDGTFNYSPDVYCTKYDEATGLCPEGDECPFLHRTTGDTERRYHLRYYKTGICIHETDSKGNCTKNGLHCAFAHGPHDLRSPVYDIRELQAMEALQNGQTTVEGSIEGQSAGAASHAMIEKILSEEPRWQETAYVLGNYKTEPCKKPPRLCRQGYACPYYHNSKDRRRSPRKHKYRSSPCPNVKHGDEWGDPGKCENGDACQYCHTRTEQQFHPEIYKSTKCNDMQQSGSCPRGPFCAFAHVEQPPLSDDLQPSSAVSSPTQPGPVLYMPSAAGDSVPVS"}
{"Strand": "UUUACAAUCUACUUAAGUAGGUUUUUACAUACCACAUGAAGCCUUCAUUUUACAUAUUUACAGCUUUUCUGUUUUCCAGAUGAAAUCAAAGAAUUUAAUGCUCAAAGUUAAAUGUGGUCU", "bound/input enrichment": "0.35 ratio"}
{"Strand": "GUUGUGACCCAUUUAACAUACACAAAAAGCUAGCCAAAAAGAAUCUGCAUGUAAUUGAUUUAGAUGAUGCCACGUUUCUGAGUGCAAAGUUUGGAAGACAGCUGGUUCCUGGUUGGAAGC", "bound/input enrichment": "0.713 ratio"}
{"Strand": "AUGUAGUUUGUUUUUAAUUUCAAGCAAAAUCUUAUUGUACUUGAAUGUGCCCUGUUUUGUUAGCACACCUAGGCUUGCUGUAACUGUACUCAUGUCCCAGGAUGUACGUUCUUUCUAUGA", "bound/input enrichment": "0.867 ratio"}
{"Strand": "UAUUAGUGUCAUACCAGCAUAUUAACCUCCCGUCUGUACACAGCUUCCAAUGUUACCGUCUAGUUAGAUUUUUAUUUAAAAUAUGAAAAACUGCUUUUCCCAAGACGUUUUUUAAAAACA", "bound/input enrichment": "1.32 ratio"}
{"Strand": "UACCUCCUGAACUUCUAGCUUUCAAGUUGUGGCCGUUUUAGAUACUGGCUUUCUUUUCUUCAGAAUUUUUCCCUGUUUCCCACAUUCUCUUCCCCUGUUCCCAAGGUCUGACUCAUGGAU", "bound/input enrichment": "1.12 ratio"}
{"Strand": "CAGUGUUUGAAGGAGAGAUCCCUGUUAUUUCUAAUAUUUGUUCUUUUUAUUAUAUUCCAGUCCAAUUUUUGAUGGAACUGGUAUAUUGGCAUUUCUCACCUAAGGAGUAACAGUUCUCUU", "bound/input enrichment": "0.319 ratio"}
{"Strand": "UCUCUCACUUAGCUGUGUCCAAAAUUGCUAUGAGGGUUGGAAACAUUGAUUAGUUUCAUGUAGAACUACACUGGCAGGUGCUUAGUUACCAUCAUAGCAAGGUCAAACACCAUCACAGUA", "bound/input enrichment": "1.36 ratio"}
